Published values from different studies.
Protocols differ between the studies behind these lines. “And” joins repeats or separate records; there may be more than shown. Numbers after ± are the reported error.
CALM1 Ca2+-bound C-lobe: Calmodulin-1, Ca2+-bound C-lobe (CALM1, Homo sapiens, UniProt P0DP23)
Genome polyprotein NS3 helicase domain: Genome polyprotein, NS3 helicase domain (Hepatitis C virus genotype 1b, UniProt Q9WMX2)
WD repeat-containing protein 91: WD repeat-containing protein 91 (Homo sapiens, UniProt A4D1P6)
UniProt A4D1P6, sequence (whole entry, looked up): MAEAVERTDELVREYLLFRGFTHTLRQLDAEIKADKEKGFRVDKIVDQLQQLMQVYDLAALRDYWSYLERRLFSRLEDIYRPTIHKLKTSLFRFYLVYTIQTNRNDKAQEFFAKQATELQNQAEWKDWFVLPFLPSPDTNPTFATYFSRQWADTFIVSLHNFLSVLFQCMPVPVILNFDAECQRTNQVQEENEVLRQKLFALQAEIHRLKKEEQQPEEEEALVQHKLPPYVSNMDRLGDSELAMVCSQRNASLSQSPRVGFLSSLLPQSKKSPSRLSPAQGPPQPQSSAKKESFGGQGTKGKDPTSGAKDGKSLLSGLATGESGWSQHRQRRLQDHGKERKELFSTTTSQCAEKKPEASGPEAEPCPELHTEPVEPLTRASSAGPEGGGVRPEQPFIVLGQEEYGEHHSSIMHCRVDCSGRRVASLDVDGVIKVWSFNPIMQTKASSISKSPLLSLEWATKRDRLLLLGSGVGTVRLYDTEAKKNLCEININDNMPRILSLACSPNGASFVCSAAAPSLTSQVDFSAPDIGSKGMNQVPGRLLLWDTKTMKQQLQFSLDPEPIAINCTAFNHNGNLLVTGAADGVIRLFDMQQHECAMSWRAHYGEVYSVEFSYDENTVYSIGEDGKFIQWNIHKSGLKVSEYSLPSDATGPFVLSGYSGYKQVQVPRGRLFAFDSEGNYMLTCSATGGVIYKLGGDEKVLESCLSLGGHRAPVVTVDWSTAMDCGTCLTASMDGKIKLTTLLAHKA
WD repeat-containing protein 91 WD40 domain, residues 392–747: WD repeat-containing protein 91, WD40 domain, residues 392–747 (Homo sapiens, UniProt A4D1P6)
ESR1: Estrogen receptor (ESR1, Homo sapiens, UniProt P03372)
UniProt P03372, sequence (whole entry, looked up): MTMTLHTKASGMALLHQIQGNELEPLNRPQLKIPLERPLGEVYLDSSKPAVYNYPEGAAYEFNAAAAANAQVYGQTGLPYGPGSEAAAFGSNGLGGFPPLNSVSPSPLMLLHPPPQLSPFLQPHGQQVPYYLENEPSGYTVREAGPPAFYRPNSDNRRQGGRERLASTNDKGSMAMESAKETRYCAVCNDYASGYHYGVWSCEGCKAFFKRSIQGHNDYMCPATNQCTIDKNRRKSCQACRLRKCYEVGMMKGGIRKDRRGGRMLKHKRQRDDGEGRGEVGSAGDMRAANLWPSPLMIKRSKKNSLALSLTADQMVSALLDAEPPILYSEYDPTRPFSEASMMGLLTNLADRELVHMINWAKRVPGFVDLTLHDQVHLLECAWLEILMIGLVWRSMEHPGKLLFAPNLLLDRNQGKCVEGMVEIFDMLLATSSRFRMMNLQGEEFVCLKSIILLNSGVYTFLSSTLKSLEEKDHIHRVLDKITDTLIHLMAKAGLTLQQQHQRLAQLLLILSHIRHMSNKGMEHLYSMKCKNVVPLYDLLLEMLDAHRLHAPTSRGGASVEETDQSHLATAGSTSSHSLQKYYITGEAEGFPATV
CIT: Citron Rho-interacting kinase (CIT, Homo sapiens, UniProt O14578)
UniProt O14578, sequence (whole entry, looked up): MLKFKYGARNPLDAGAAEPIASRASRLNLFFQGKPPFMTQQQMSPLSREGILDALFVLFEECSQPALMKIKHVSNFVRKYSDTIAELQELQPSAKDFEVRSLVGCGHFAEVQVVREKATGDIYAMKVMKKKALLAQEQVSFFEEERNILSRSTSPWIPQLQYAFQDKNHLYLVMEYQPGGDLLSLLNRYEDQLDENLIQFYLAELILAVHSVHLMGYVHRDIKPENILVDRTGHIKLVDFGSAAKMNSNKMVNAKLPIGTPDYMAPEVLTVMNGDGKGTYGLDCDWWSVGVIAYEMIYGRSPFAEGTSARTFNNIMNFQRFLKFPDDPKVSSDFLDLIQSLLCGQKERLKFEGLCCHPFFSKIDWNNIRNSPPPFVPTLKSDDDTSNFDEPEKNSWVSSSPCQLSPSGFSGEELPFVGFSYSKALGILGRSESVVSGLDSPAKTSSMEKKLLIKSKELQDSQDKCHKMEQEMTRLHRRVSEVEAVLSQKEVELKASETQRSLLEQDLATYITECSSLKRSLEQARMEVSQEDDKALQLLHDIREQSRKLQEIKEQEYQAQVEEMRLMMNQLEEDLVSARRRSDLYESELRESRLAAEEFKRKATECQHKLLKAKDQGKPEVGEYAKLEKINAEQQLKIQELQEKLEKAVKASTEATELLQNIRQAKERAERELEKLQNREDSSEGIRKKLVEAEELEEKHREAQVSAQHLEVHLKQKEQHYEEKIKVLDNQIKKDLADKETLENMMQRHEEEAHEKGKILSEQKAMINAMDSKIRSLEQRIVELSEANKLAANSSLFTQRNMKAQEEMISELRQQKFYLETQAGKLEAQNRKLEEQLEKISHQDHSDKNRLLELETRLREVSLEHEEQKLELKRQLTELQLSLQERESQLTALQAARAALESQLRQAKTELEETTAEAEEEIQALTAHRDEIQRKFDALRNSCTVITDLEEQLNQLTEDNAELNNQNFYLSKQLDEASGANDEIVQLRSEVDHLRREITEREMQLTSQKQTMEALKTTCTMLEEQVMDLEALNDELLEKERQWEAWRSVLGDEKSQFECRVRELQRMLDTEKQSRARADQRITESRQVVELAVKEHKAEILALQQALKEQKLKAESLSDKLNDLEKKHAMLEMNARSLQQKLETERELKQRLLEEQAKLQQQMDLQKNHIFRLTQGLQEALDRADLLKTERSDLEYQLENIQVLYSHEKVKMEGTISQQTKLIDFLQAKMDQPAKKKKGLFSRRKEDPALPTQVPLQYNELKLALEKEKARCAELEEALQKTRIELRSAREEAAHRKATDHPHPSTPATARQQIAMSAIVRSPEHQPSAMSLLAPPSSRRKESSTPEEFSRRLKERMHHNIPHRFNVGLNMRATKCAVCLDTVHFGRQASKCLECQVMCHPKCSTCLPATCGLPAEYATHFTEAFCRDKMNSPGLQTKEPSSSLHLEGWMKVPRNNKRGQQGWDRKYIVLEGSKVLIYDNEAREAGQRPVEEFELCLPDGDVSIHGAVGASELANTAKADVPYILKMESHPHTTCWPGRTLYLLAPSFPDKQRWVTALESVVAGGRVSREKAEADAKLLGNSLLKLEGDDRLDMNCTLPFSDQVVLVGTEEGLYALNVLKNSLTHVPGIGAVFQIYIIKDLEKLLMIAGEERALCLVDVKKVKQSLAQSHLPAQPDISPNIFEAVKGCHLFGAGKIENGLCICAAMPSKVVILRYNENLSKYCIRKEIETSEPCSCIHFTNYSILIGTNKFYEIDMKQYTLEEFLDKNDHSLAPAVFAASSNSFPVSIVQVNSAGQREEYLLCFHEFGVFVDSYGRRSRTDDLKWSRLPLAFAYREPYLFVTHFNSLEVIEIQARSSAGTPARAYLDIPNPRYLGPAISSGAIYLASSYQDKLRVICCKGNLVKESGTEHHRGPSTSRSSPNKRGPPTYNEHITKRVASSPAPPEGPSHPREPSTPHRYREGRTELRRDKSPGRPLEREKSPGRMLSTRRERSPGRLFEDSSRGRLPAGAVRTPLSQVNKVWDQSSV
T1: ssDNA, aptamer; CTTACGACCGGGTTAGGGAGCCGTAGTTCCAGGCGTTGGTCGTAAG
UniProt P51575, sequence (whole entry, unmodified, looked up): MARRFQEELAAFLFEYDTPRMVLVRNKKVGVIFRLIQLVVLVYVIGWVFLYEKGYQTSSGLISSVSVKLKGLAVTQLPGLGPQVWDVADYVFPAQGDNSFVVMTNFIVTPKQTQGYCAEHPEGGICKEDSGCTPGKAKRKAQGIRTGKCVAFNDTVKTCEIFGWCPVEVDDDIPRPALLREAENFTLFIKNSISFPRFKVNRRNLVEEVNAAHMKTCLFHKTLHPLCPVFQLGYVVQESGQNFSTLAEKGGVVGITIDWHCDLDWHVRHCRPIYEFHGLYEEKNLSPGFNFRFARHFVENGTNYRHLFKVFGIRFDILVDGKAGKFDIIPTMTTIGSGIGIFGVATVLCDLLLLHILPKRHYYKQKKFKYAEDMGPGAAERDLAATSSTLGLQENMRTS
UniProt Q64663, sequence (whole entry, unmodified, looked up): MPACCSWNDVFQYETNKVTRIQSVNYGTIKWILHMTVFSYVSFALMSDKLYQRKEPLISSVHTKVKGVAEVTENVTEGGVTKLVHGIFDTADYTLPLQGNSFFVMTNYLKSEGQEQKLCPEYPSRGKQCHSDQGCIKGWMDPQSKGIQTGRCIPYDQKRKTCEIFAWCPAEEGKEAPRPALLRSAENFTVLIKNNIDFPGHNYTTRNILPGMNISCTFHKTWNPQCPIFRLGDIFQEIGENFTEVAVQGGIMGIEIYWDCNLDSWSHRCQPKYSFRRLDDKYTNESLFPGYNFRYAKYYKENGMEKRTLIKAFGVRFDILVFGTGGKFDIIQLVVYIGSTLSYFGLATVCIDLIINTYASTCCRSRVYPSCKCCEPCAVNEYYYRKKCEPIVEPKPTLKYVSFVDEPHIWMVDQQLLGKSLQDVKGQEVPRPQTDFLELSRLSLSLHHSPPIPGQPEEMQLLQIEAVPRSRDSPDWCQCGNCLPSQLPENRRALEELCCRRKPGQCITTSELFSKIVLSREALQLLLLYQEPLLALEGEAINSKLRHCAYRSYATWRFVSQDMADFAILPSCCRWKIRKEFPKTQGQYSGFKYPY
UniProt P31947, sequence (whole entry, looked up): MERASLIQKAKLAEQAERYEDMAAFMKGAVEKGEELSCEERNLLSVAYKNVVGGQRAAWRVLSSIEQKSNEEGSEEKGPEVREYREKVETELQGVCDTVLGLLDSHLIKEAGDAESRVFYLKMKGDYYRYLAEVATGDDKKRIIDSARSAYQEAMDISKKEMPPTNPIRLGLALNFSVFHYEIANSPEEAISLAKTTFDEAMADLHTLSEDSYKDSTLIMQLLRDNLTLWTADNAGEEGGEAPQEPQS
UniProt Q16774, sequence (whole entry, unmodified, looked up): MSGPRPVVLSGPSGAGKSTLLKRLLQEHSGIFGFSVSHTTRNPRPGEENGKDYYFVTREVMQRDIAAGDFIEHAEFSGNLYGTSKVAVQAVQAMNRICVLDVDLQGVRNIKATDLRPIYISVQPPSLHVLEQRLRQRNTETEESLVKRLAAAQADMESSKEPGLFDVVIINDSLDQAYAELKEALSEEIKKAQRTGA

Nc1ncnc2c1ncn2[C@@H]1O[C@H](COP(=O)(O)OP(=O)(O)OP(=O)(O)O)[C@@H](O)[C@H]1O — Kd (T1, ssDNA, aptamer; ITC): 721 nM
C=CC(=O)Nc1cc(NC(=O)c2cnn(-c3ccccc3F)c2)ccc1F — FP signal (14-3-3 protein sigma, with ERα phosphopeptide (SFN, Homo sapiens, UniProt P31947); binding, fluorescence polarization; covalent ligand screen, with: phosphorylated ERalpha peptide; relative to: control): 97.3%
CC[C@H](C)[C@H](NC(=O)[C@H](CCCCN)NC(=O)CNC(=O)[C@@H](NC(=O)[C@@H](NC(=O)[C@H](CCSC)NC(=O)[C@H](Cc1c[nH]cn1)NC(=O)CN)[C@@H](C)O)C(C)C)C(=O)N[C@@H](Cc1ccc(O)cc1)C(=O)N[C@@H](C)C(=O)N[C@@H](C)C(=O)N[C@@H](CCSC)C(=O)N[C@@H](CCSC)C(=O)N[C@H](C(=O)N[C@@H](CCSC)C(=O)N[C@@H](CCC(=O)O)C(=O)N[C@@H](Cc1ccc(O)cc1)C(=O)N[C@@H](Cc1ccc(O)cc1)C(=O)N[C@@H](CCCNC(=N)N)C(=O)N[C@@H](CCC(N)=O)C(=O)N[C@@H](CO)C(=O)N[C@@H](CCCCN)C(=O)N[C@@H](C)C(=O)N[C@@H](CCCCN)C(=O)N[C@@H](CCCCN)C(=O)N[C@@H](CC(C)C)C(=O)N[C@@H](CCC(N)=O)C(=O)N[C@@H](C)C(=O)N[C@@H](CCSC)C(=O)N[C@@H](CCCNC(=N)N)C(=O)O)[C@@H](C)CC — ΔS (CALM1 Ca2+-bound C-lobe; binding, competition ITC; concentration not given, 15 °C, with: pre-formed Ca2+/N-lobe–CaV2.1 IQ complex): 49.2 ± 1.3 cal/(mol·K)
CNCc1ccc(-c2[nH]c3cc(F)cc4c3c2CCNC4=O)cc1 — cough incidence (patients; oral, 360 mg twice daily, all grades): 0%
Cc1ccc(O)c(N=Nc2ccccc2)n1 — inhibition (Genome polyprotein NS3 helicase domain; DNA binding, inhibitor; hepatitis C virus; 100 µM, with: Cy5-dT15 DNA): 1%
CCn1c(=O)[nH]c2cc(C(=O)NC(c3ccc(F)cc3)c3cnn(C)c3)ccc2c1=O (centres unmarked) — SPR response (WD repeat-containing protein 91; binding, SPR steady state; 0.4688 µM): 4.93 RU
CC(C)c1ccc(C(=O)NCCOc2ccc(C(=O)N3CCC(C#N)CC3)cc2)cc1 — binding (WD repeat-containing protein 91 WD40 domain, residues 392–747; SPR; 45 µM): 2% and -1%
Nc1ncnc2c1ncn2[C@@H]1O[C@H](COP(=O)(O)OP(=O)(O)OP(=O)(O)O)[C@@H](O)[C@H]1O — normalized current (P2X purinoceptor 7 (P2rx7, Rattus norvegicus, UniProt Q64663); ion current, agonist, two-electrode voltage clamp; Xenopus laevis oocytes; 30 µM; relative to: 100 µM compound response): 0.92 and 0.8 and 0.72
Nc1ncnc2c1ncn2[C@@H]1O[C@H](COP(=O)(O)O)[C@@H](O)[C@H]1O — Km (Chimera-2 enzyme (Aplysia californica); deamination, substrate, spectrophotometric; Tris-HCl buffer with NaCl): 108 ± 16 µM
N=C(N)NC(=O)Cc1c(Cl)cccc1Cl — inhibition (Genome polyprotein NS3 helicase domain; DNA binding, inhibitor; hepatitis C virus; 100 µM, with: Cy5-dT15 DNA): 1%
COc1ccc(-c2oc3c(CC=C(C)C)c(O[C@@H]4O[C@H](CO)[C@@H](O)[C@H](O)[C@H]4O)cc(O)c3c(=O)c2O)cc1 — selectivity ratio (ESR1; array formation; PRL-HeLa; relative to: EC50 ERβ over EC50 ERα): 0.267
Nc1c(Br)cc(Br)cc1CN[C@H]1CC[C@H](O)CC1 — potentiation (Glutamate receptor 2 (Homo sapiens, UniProt P42262); ion current, positive allosteric modulator, SyncroPatch patch clamp; HEK293; 10 µM): 76%
CC[C@H](C)[C@H](NC(=O)[C@H](CCCCN)NC(=O)CNC(=O)[C@@H](NC(=O)[C@@H](NC(=O)[C@H](CCSC)NC(=O)[C@H](Cc1c[nH]cn1)NC(=O)CN)[C@@H](C)O)C(C)C)C(=O)N[C@@H](Cc1ccc(O)cc1)C(=O)N[C@@H](C)C(=O)N[C@@H](C)C(=O)N[C@@H](CCSC)C(=O)N[C@@H](CCSC)C(=O)N[C@@H](C)C(=O)N[C@@H](CCSC)C(=O)N[C@@H](CCC(=O)O)C(=O)N[C@@H](Cc1ccc(O)cc1)C(=O)N[C@@H](Cc1ccc(O)cc1)C(=O)N[C@@H](CCCNC(=N)N)C(=O)N[C@@H](CCC(N)=O)C(=O)N[C@@H](CO)C(=O)N[C@@H](CCCCN)C(=O)N[C@@H](C)C(=O)N[C@@H](CCCCN)C(=O)N[C@@H](CCCCN)C(=O)N[C@@H](CC(C)C)C(=O)N[C@@H](CCC(N)=O)C(=O)N[C@@H](C)C(=O)N[C@@H](CCSC)C(=O)N[C@@H](CCCNC(=N)N)C(=O)O — stoichiometry (CALM1 Ca2+-bound C-lobe; binding, isothermal titration calorimetry; pH 7.4, 15 °C, Ca2+-bound C-lobe, with: CaV2.1 IQ peptide): 0.9 ± 0.01
Cn1cc(-c2ccc(-c3cncc(Cl)c3N3CCC4(CCNC4=O)CC3)cc2)cn1 — log2 fold change (COLO 205; gene expression, microarray, refers to: CTSV mRNA; concentration not given, 2 h; relative to: untreated cells): -2.11
O=C(Nc1ccncc1)c1cc([N+](=O)[O-])ccc1Cl — inhibition (Genome polyprotein NS3 helicase domain; DNA binding, inhibitor; hepatitis C virus; 100 µM, with: Cy5-dT15 DNA): 0%
Nc1ncnc2c1ncn2[C@@H]1O[C@H](COP(=O)(O)CP(=O)(O)OP(=O)(O)O)[C@@H](O)[C@H]1O — calcium influx (P2X purinoceptor 1 (P2RX1, Homo sapiens, UniProt P51575, M214A); calcium influx; 316 nM; relative to: ionomycin response): 10.7% and 18.2% and 13.9% and 16.1%
O=C(NC1CCCS(=O)(=O)c2ccccc21)c1ccc2nc(O)cnc2c1 (centres unmarked) — SPR response (WD repeat-containing protein 91; binding, SPR steady state; 0.1172 µM): 0.813 RU
CC(C)C[C@H](NC(=O)C[C@H](O)[C@H](CC(C)C)NC(=O)[C@H](Cc1c[nH]cn1)NC(=O)CNC(=O)[C@@H](NC(=O)[C@H](C)NC(=O)[C@H](Cc1c[nH]c2ccccc12)NC(=O)[C@H](CCC(N)=O)NC(=O)[C@@H](Cc1ccccc1)NC(=O)COCCOCCNC(=O)CCC(C(=O)O)N1CCN(CC(=O)O)CCN(CC(=O)O)CCN(CC(=O)O)CC1)C(C)C)C(N)=O (some centres unmarked) [lutetium-177 labelled] — tissue uptake (BALB/c nu/nu mice, female, bone; 50 pmol, 1 h, with: PA 300 µg): 0.32 ± 0.03 %ID/g
Nc1ncnc2c1ncn2[C@@H]1O[C@H](CO[P@](=O)(O)O[P@](=O)(O)O[P@@](=O)(O)S)[C@@H](O)[C@H]1O — ΔH (GUK1 (Homo sapiens, UniProt Q16774); binding, isothermal titration calorimetry; molar ratio 2.83, fitted curve): -0.283 kcal/mol
C=CC(=O)N1CCC(C(=O)NCC(=O)N2CCN(c3nc(-c4cnc(N)nc4C(F)F)nc(N4CCOCC4)n3)CC2)CC1 — remaining binding (CIT; KINOMEscan; 1 µM): 100%
Cc1[nH]c(C)c(S(=O)(=O)Nc2ccc(C(F)(F)F)c(Cl)c2)c1C(=O)N1CCC(F)(F)C1 — cooperativity factor α (DRD3 (Homo sapiens, UniProt P35462); allosteric modulator, ternary complex model; with: dopamine, [3H]methylspiperone): 4.6
COc1c(C#N)cccc1CC(=O)Nc1ccc(N2CCc3sccc3C2)cc1 — binding (WD repeat-containing protein 91 WD40 domain, residues 392–747; SPR; 45 µM): -9% and 3%
CC[C@@H](C)[C@@H](NC(=O)[C@@H](Cc1ccc(O)cc1)NC(=O)[C@H]1CCCN1C(=O)[C@@H](CCCNC(=N)N)NC(=O)[C@H](N)Cc1c[nH]cn1)C(=O)N[C@H](C)C(=O)N[C@H](Cc1c[nH]cn1)C(=O)N[C@H](CCCNC(=N)N)C(=O)N[C@@H](C(=O)N[C@H](Cc1ccc(O)cc1)C(=O)N[C@H](CO)C(=O)N[C@H](Cc1ccccc1)C(N)=O)C(C)C — surface expression (Transferrin receptor protein 1 (Tfrc, Mus musculus, UniProt Q62351); flow cytometry; DC2.4; 6 h, pH 7.4, unit not given; relative to: 0 h): 0.85 and 0.864
[H]/N=C(/N)NCC(=O)O — normalised MST signal (SLC6A6 (Homo sapiens, UniProt P31641, G62A); binding, microscale thermophoresis; 15.6 µM, room temperature, with: 50 nM labelled protein; higher = more binding): -0.0141
O=C1Cc2cc(CCN3CCN(c4nsc5ccccc45)CC3)c(Cl)cc2N1 — inhibition (Genome polyprotein NS3 helicase domain; DNA binding, inhibitor; hepatitis C virus; 100 µM, with: Cy5-dT15 DNA): 2%
N#CC1CCN(C(=O)c2ccc(CSc3nc4ccccc4s3)cc2)CC1 — binding (WD repeat-containing protein 91 WD40 domain, residues 392–747; SPR; 45 µM): 18% and 33%
C1=C/COCc2cc(ccc2OCCN2CCCC2)Nc2nccc(n2)-c2cccc(c2)COC/1 — percent of control (CIT; concentration not given): 72%
C=CC(=O)N1CCC(COCC(=O)N2CCN(c3nc(-c4cnc(N)nc4C(F)F)nc(N4CCOC[C@@H]4C)n3)CC2)CC1 — remaining binding (SRMS (Homo sapiens, UniProt Q9H3Y6); KINOMEscan; 1 µM): 89%
COc1cc(Nc2ncc3c(n2)-c2ccc(Cl)cc2C(c2c(F)cccc2OC)=NC3)ccc1C(=O)O — remaining activity (EPHA3; kinase activity; 1 µM): 78%
O=C1NCCc2nc(OCc3cccc(F)c3)ccc21 — log cooperativity factor beta (Grm5 (Rattus norvegicus, UniProt P31424); calcium flux, positive allosteric modulator; with: glutamate): 0.234 ± 0.039
CCCC[C@H](NC(=O)[C@H](C)c1c(C)[nH]c2ccc(O)cc12)c1ncc(-c2cc3ccccc3nc2OC)[nH]1 — effect (CNR1 (Homo sapiens, UniProt P21554); 10 µM): 53%
O=C1CC[C@H](N2Cc3c(ccc4c3OCC43CCN(C[C@@H]4CCC5(CCN(c6ccc([C@@H]7c8ccc(O)cc8CC[C@@H]7c7ccccc7)cc6)CC5)OC4)CC3)C2=O)C(=O)N1 — ER level reduction (ESR1; degrader, western blot; MCF7; 10 and 100 nM, 7 h): > 80%
C1COC(NC(C2CC2)C2CC2)=N1 — inhibition (Genome polyprotein NS3 helicase domain; DNA binding, inhibitor; hepatitis C virus; 100 µM, with: Cy5-dT15 DNA): 0%
COc1c(C#N)cccc1CC(=O)Nc1ccc2c(c1)CCCN2C(=O)c1ccccc1 — SPR response (WD repeat-containing protein 91 WD40 domain, residues 392–747; binding, SPR single-concentration screen; 45 µM): 52.1 RU and 55.7 RU
COc1cc(/C=C/C(=O)/C=C/c2ccc(O)c(OC)c2)ccc1O — ΔS (haemin; binding, isothermal titration calorimetry; pH 7.4, 37 °C): -202 ± 4.03 J/(mol·K)

For quick reference, copied from above:
CCCC[C@H](NC(=O)[C@H](C)c1c(C)[nH]c2ccc(O)cc12)c1ncc(-c2cc3ccccc3nc2OC)[nH]1 — effect (CNR1 (Homo sapiens, UniProt P21554); 10 µM): 53%
O=C1CC[C@H](N2Cc3c(ccc4c3OCC43CCN(C[C@@H]4CCC5(CCN(c6ccc([C@@H]7c8ccc(O)cc8CC[C@@H]7c7ccccc7)cc6)CC5)OC4)CC3)C2=O)C(=O)N1 — ER level reduction (ESR1; degrader, western blot; MCF7; 10 and 100 nM, 7 h): > 80%
C1COC(NC(C2CC2)C2CC2)=N1 — inhibition (Genome polyprotein NS3 helicase domain; DNA binding, inhibitor; hepatitis C virus; 100 µM, with: Cy5-dT15 DNA): 0%
